# Results of several laboratories.
# Every numbered part comes from another study and shows a few of its results, in no order. Substitutions count along the parent as printed.

# Set 1 — technique: DHFR PCA, deep sequencing; medium: yeast; added: (+)-ABA 0.39 µM; relative to: wild-type fitted maximum; direction: higher = stronger binding
# Target: ABI1, truncated, D143A, DHFR fusion (Arabidopsis thaliana)
# Notes: methotrexate growth selection, single substitutions
# Parent: PYL1, truncated, DHFR fusion (Arabidopsis thaliana); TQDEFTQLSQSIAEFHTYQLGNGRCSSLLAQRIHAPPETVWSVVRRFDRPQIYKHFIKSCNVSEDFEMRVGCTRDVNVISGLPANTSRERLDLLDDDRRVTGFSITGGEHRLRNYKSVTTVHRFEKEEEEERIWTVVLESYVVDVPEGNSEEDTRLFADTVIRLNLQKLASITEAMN
Change,relative binding score [%]
V70Q,6.51
P83T,7.93
Q167G,22.6
L94E,-2.15
Q31H,16.3
V78G,19
Q19K,50.8
V161Q,38.8
M176I,21.1
F157E,-3.52
R132L,37.4
E129N,48.5
L82I,35
H122T,-11.6
N165H,17.2
E131G,68.9
A13L,34.4
S80E,-4.24
A170R,45.9
D95P,-11
A158W,-7
P50W,-1.53
I33K,-5.87
H16D,-7.12
F56C,5.4

# Set 2 — technique: protein-binding microarray; molecule type: double-stranded DNA, one strand shown; medium: in vitro; tested at: 250 nM; notes: 60-bp whole probe; added: salmon DNA 0.4 mg/ml; relative to: random background probes; direction: higher = stronger binding; constant ends, left off below: GCCTAGCAC … GTCTTGATTCGCTTGACGCTGCTG
# Target: Interferon regulatory factor 5, full length, phosphomimetic (IRF5, Homo sapiens, UniProt Q13568-2, residues 1-514, K96S/S451D/S453D/S456D/S462D)
Oligonucleotide,log fluorescence [z-score]
TTAGGTTTCGGTTTCAGTTAGTGCTAG,11.2
TTAGGTTTACTTTTCCTTTAGTGCTAG,1.15
TTAGAACTAGGGACTGGATTAGTGCTA,-0.337
GACGGTATCCTTCTCCTGCCGTGCTAG,0.19
GACGAACTGAGTTTCGAGTCGTGCTAG,5.46
CACGATTTCAGTTCCGAGACGTGCTAG,1.14
TTAGGTCTCCTACTGCTTGAGTGCTAG,-0.385
TCACCCCTCAGATCTGCCACTGTGCTA,-0.0378
TTAGGTTTCGACTATGGGTTAGTGCTA,7.42
GACGGTTTCGGGCCTGGGGACGTGCTA,4.1
GACGAGCTGGGGTTTCGAGACGTGCTA,0.683
TTAGGTTTCCTTTTTCTTTAGTGCTAG,1.59
GACGGTCTCCTACTGCTTACGTGCTAG,-0.175
TTAGAACTGAGTATCGATCAGTGCTAG,5.97
TTTTTTTTTTTTTTTTTACTGTGCTAG,1.29
TTAGGTTTCGGGTATCTGTTAGTGCTA,9.15

# Set 3 — technique: RNA Bind-n-Seq; molecule type: RNA; medium: in vitro; tested at: 365 nM; relative to: no-protein control; direction: higher = stronger binding
# Target: RNA binding protein fox-1 homolog 2, RRM domain, GST-SBP tag (RBFOX2, Homo sapiens, UniProt O43251-10, residues 100-194)
# Notes: natural RNA segment, single round, ends assumed
# Constant ends, left off below: GGGAGUUCUACAGUCCGACGAUC … UGGAAUUCUCGGGUGCCAA
# Construct (chain): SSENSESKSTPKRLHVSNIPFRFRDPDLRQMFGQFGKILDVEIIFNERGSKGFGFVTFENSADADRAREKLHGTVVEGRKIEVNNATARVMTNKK
Oligonucleotide,RBNS enrichment (R)
AAUGCCCAGGCUUCUUUGUUAUAGUGGCACGCUGGGUUACUUGCCACACACAGAUCACUCCUCCCAGGGCUGCUGGCACACACUGAUUGUGGGGAGUUCAAGAGGCCUUU,0.582
GGACGCCAAGGCCGCAGGACUGGAGGGCCAGGCCCCGCCACCCCCACGGGAGACCCGGGACAGGGCGUCUUCCUAAGUUAUUCAUCUCCUCUCCGCCUGCUGCUCGGGAA,0.29
AGGUGCUGUUAGACACAGAAGGUAAAUAUGUUCUUAACAAAAUGCUUUCUGAAAUUUUGAACCCCACUUAUCCAUUGUUUGAAACCAGCAGUUUAAACCUCCUGACCCAC,0.447
AUUUUUGUAGCGACUGUAAACAGAAAUGCCAAAUUGAUGGUUAAUUGUUGCUGCUUCAAAAAUAAGUAUAAAAUUAAUAUGUAAGGAAGCCCAUUCUUUCAUGUUAAAUA,0.283
AAACCAACAAUGAAUUCAAUAUACCAGGAAAUAGAUUGUUAGUAGGGAAUGGCAUUAAAGGAAAAAAAAAUUAGAUAAGAUGCAUUCAAGGAAUAAUUACUUUCACUCUG,0.568
AGGGGUGGGGUGAACCCUUCUGUGGUCUGUACCCCUGGUCUAGUGGGAGGAAUCCCUGAAGACCUGCAUCCCCUAAGUGAGGACCCUACAGGGUACCUUGUGCUCUGCCC,0.892
UGUAAAAAGAUUCCCAAACGUGGUUACAUUAGCCAUUCAUGUAUGUCAGAAGUGCAGAAUUGGGGCACUUAAUGGUCACCUUGUAACAGUUUUGUGUAACUCCCAGUGAU,1.29
GACCCUUGCUGCUCCCGUGGCCUGGACACGCUGGGGAGCUUCUCACACCUACCCCUACCGUCCAGCCUGGCCUCUUCCCUGAAUCAGCUUCAAGAUGGCACCAGCUCUUU,0.764

# Set 4 — target: CCND3, cyclin fold, Cln2 fusion (human); technique: yeast growth competition, sequencing; medium: yeast; notes: weak parent motif; relative to: not given; direction: higher = stronger binding
# Parent: E2F1 docking peptide (human); PPVKRRLDLETDH; partner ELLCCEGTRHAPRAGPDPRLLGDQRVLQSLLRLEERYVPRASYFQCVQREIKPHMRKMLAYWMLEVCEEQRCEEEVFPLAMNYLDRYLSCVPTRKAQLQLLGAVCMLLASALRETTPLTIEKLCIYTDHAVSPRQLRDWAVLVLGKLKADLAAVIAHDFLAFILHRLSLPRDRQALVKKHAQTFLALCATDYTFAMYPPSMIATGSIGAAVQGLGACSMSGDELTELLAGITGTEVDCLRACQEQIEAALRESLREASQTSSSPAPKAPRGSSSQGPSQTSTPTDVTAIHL
Change,normalised enrichment score
PPVKGRLDLETDH [R5G],0.0274
PPVKRRLDLENDH [T11N],0.0681
PPVKTRLDLETDH [R5T],0.044
PPNKRRLDLETDH [V3N],0.159
PPVKRRLDLPTDH [E10P],0.11
PPVKRRLDLFTDH [E10F],0.118
PPVKRRLDLETDQ [H13Q],0.114
PPVKRRLDLETDK [H13K],0.221
PPVKRRLDLETMH [D12M],0.0949
PPVKRMLDLETDH [R6M],0.124
PPVKRRKDLETDH [L7K],0.119
PPVKQRLDLETDH [R5Q],0.126
PPVKRRLDLDTDH [E10D],0.228
PPVKRRLDLESDH [T11S],0.157
PPVKFRLDLETDH [R5F],0.0526
PPVKRRLDLEEDH [T11E],0.165
PPVKRRLDLETWH [D12W],0.124
PPVKNRLDLETDH [R5N],0.133
PPVKLRLDLETDH [R5L],0.118
PPVKRQLDLETDH [R6Q],0.181
PPVKRRLHLETDH [D8H],0.0228
PPVKRALDLETDH [R6A],0.0389
PPVKRRLDLEKDH [T11K],0.151
PPVKRRLDLETPH [D12P],0.0968
HPVKRRLDLETDH [P1H],0.109
